Measured values gathered from unrelated publications.
Parts stem from different laboratories: compare values within a part only. Substitutions count along the parent as printed.

Series 1 — method: protein-binding microarray; molecule type: hairpin DNA; medium: in vitro; tested at: not given; reference: not given; direction: higher = stronger binding; shared flanks, not repeated: GAGGCC … GGCCTCACACTCTTTCCCTACACG
Target: Signal transducer and activator of transcription 1-alpha/beta, full length (STAT1, Homo sapiens, UniProt P42224, residues 1-750)
Chain of UniProt P42224 (whole entry, looked up): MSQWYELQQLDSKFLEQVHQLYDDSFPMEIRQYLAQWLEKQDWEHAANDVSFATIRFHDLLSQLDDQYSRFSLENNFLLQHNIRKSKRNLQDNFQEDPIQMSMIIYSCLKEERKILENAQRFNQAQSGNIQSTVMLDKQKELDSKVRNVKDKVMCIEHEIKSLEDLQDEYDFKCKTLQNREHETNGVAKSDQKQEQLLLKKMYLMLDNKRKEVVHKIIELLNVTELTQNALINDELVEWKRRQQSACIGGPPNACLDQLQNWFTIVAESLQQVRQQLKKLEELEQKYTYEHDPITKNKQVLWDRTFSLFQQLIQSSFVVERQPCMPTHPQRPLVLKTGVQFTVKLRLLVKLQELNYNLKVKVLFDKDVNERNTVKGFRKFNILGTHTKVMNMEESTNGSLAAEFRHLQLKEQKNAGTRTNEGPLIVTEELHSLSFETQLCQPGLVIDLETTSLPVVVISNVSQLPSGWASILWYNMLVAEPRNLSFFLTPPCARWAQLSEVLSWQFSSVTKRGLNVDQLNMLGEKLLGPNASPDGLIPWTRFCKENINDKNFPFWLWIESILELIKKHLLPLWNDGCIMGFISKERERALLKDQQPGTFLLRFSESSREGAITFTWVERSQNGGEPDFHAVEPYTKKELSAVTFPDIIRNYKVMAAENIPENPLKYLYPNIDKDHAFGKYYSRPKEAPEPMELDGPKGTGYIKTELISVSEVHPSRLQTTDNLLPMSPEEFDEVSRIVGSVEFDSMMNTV
Notes: whole hairpin DNA, median over replicate spots
Oligonucleotide	median fluorescence
TTTCCCGGAGGCCTCCTGGCCTCCGGGAAA (5mC at 27)	7450 a.u.
TTTCACGGAAGCCTCCTGGCTTCCGTGAAA (5mC at 10)	1340 a.u.
TTTCCCGGCGGCCTCCTGGCCGCCGGGAAA (5mC at 15)	875 a.u.
TTTCCCCGAAGCCTCCTGGCTTCGGGGAAA (5mC at 13)	1150 a.u.
TTTCCCGGATGCCTCCTGGCATCCGGGAAA	1490 a.u.
TTCGCCGGAAGCCTCCTGGCTTCCGGCGAA (5mC at 33)	1220 a.u.
TTTCCCGTAAGCCTCCTGGCTTACGGGAAA	4770 a.u.
TTTCCCGGAGGCCTCCTGGCCTCCGGGAAA	1440 a.u.
TTTCCCGCGAGCCTCCTGGCTCGCGGGAAA (5mC at 14 28)	1010 a.u.
TTTCCAGGAAGCCTCCTGGCTTCCTGGAAA (5mC at 11)	4530 a.u.
TGTCCCGGAAGCCTCCTGGCTTCCGGGACA (5mC at 35)	1580 a.u.
TTTCCCCGAAGCCTCCTGGCTTCGGGGAAA (5mC at 13 29)	1070 a.u.
CTTCCCGGAAGCCTCCTGGCTTCCGGGAAG (5mC at 7)	11700 a.u.
TGTCCCGGAAGCCTCCTGGCTTCCGGGACA	1490 a.u.
TCGCCCGGAAGCCTCCTGGCTTCCGGGCGA (5mC at 8 34)	1150 a.u.
TTTCCCGGCCGCCTCCTGGCGGCCGGGAAA	858 a.u.

Series 2 — target: CCNE1, cyclin fold, Cln2 fusion (human); method: yeast growth competition, sequencing; medium: yeast; notes: weak parent motif; reference: not given; direction: higher = stronger binding
Starting sequence: CDC6 docking peptide (human); TLKGRRLVFDNQL
Change	normalised enrichment score
G4R	0.91
N11K	-0.136
L7D	0.215
V8H	0.289
N11T	0.906
R5H	-0.445
V8Y	0.417
Q12A	0.0212
K3W	0.336
Q12P	-0.0359
Q12H	0.284
D10I	0.714
R5V	0.778
N11W	1.35
L13H	-0.478
L13V	0.375
R6S	-0.462
L2A	-0.178
R6D	-0.47
G4E	-0.275
K3L	0.734
L13M	0.177
L7P	0.00611
G4F	0.0551
D10Y	1.28

Series 3 — method: RNA Bind-n-Seq; molecule type: RNA; medium: in vitro; tested at: 200 nM; notes: whole 134-nt RNA, ends assumed; added: 150 mM LiCl; reference: input library; direction: higher = stronger binding; library: 7-deaza-guanosine replaces G
Target: Ras GTPase-activating protein-binding protein 1, full length (G3BP1, Homo sapiens, UniProt Q13283)
Chain of UniProt Q13283 (whole entry, looked up): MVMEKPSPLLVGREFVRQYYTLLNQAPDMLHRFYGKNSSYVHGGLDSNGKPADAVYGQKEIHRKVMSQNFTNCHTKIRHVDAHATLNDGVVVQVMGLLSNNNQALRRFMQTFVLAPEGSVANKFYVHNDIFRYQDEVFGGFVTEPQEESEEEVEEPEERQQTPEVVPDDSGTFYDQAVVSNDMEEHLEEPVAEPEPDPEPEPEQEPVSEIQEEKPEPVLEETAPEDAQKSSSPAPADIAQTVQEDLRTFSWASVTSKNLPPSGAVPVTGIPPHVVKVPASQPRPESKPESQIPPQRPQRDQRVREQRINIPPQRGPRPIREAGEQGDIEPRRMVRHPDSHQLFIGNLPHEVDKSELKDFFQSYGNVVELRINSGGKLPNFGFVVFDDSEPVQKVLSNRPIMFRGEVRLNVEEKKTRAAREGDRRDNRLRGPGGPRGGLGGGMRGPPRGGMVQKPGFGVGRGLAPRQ
Shared flanks, not repeated: GGGAGUUCUACAGUCCGACGAUC … UGGAAUUCUCGGGUGUCAAGG
Oligonucleotide	log2 enrichment
UGGGGUAGACCAGUUCCAUGGCACUGAAUAUGUGUGCUGCCCUCAGACAAAGAUUAUUGGAUCUGUGUCAAAAGAAGAGGAAGAGGAAGA	-0.647
ACCAUGCAGGUGGGCAUCUUUGGGAAGUGGGGCAAGGGGGGGAUAGGGAGGGGGGUAACACUUUGAGAACAGGUGGUCCCAGGUCGUUUC	-0.129
CUCAAGUCCUGUGCUACACAUCGUAUGUACCGAAUCGGAAAGGAGGUUUUUGGAAAGUAUUAUGUUACGCCGUUCGGAUCUGCACUUCCA	0.0614
CACAGACAACACGCACCCACACAGACACAGAGGGAAGGGGUUGGGAUGGGGACAGGGUGCACAGCAAAACGGGGUAGGACCCCAGCCCCU	0.131
UCAAGUCCUGUGCUACACAUCGUAUGUACCGAAUCGGUUUGGAAAAAAAGGUGGAAAGUAUUAUGUUACGCCGUUCGGAUCUGCACUUCC	-0.7
GUCCUGUGCUACACAUCGUAUGUACCGAAUCGGGUUUUUGGGUUUUUGGGGUUUUUGGAAAGUAUUAUGUUACGCCGUUCGGAUCUGCAC	-0.0617
UGUGCUACACAUCGUAUGUACCGAAUCGGGGUUUUUUUGGGGUUUUUUUGGGGUUUUUUUGGGAAAGUAUUAUGUUACGCCGUUCGGAUC	2.02
UGUGCUACACAUCGUAUGUACCGAAUCGGGGUUUUUUUGGGGAAAAAAAGGGGUUUUUGGGGAAAGUAUUAUGUUACGCCGUUCGGAUCU	-1.71

Series 4 — method: RNA Bind-n-Seq; molecule type: RNA; medium: in vitro; tested at: 365 nM; reference: no-protein control; direction: higher = stronger binding
Target: RNA binding protein fox-1 homolog 2, RRM domain, GST-SBP tag (RBFOX2, Homo sapiens, UniProt O43251-10, residues 100-194)
Notes: natural RNA segment, single round, ends assumed
Shared flanks, not repeated: GGGAGUUCUACAGUCCGACGAUC … UGGAAUUCUCGGGUGCCAA
Oligonucleotide	RBNS enrichment (R)
GAUGGGAGGUCUCACCGGCCACAGUGAGGGUUGUUUCCUGACAAGACUUUUGUGUUAAGGAUGUGUUGUGUGCUGGUAGAUGUUCAGGAGUGGCUCUGACCCCCAACCUA	1.1
ACUGGAAAGAGCUUUAGGACAGCUUAGAUGCCGAGUGGGCGAAUGCCAGACCAAUGAUACCCAGAGCUACCUGCCGCCAACUUGUUGAGAUGUGUGUUUGACUGUGAGAG	1.62
CCCUUCCAAACAAAAAAGGCAAAGUUGUCCUAAGGUGAUCUCACUGUUGUGAAUGCCCAGUUGUAUUUUUAUAAGGUUGUAUAUAUGGGGAAAAAAAGUAUCGGUGAGUU	1.11
UUCCCUCGCCUUUCAAGCACGCGGACAUCGUCACCACCACUACUCACAAGACUCUUCGAGGGGCCAGGUCAGGGCUCAUCUUCUACCGGAAAGGGGUGAAGGCUGUGGAC	1.04
AGGGAAGGCUGCGGGAAUCAUGUUAAGCAGCUUCAUUAAAUGACAUCAUCACGUGUCUAAACAGCUUAGACGUUCUUCUAUACUUGAAACACUCUCAUACAGAUGGAUGC	0.458
ACACCAUAAAAGAAAUAGGCUUUUUGUGCCUUUUGCUGUUAAUGUUUAAUUUACAAACUGUUUUGGUAAAUCUCUUAAUGUAAGUAGCUAUUUGACUUUGGAAUUUUGCA	15.4
ACAUUCUAGUUUGUGGAGGGUUAUUUAAAAAAACAAAAAAGGAAGAUGGUCAAGUUUGUAAAAUAUUUGUUUGUGCUUUUUCCCCCUCCUUACCUGACCCCCUACGAGUU	0.912
AGCUGUAGGACCUGCAUGGGAAAUGGUCUGUGUGUUUCAGGUUAACAAAUACUGAAAAUCCCAAGGAACCUGGGAGAAUCUGAAAAUGAACUCCAGUCUUCAGCUCGAAG	7.42

Some of these lines once more (series 2):
Change	normalised enrichment score
N11K	-0.136
L7D	0.215
V8H	0.289
N11T	0.906
R5H	-0.445
V8Y	0.417
Q12A	0.0212
K3W	0.336
